Measurements collected from several papers.
A part holds a random share of what one study measured. Positions count from the first letter of the parent shown.

Series 1
Target: RNA binding protein fox-1 homolog 2, RRM domain, GST-SBP tag (RBFOX2, Homo sapiens, UniProt O43251-10, residues 100-194)
Method: RNA Bind-n-Seq
Form: RNA
Sample: in vitro
Concentration: 365 nM
Setting: natural RNA segment, single round, ends assumed
Relative to: no-protein control
Reading: higher = stronger binding
Constant ends, left off below: GGGAGUUCUACAGUCCGACGAUC … UGGAAUUCUCGGGUGCCAA
Target sequence (chain): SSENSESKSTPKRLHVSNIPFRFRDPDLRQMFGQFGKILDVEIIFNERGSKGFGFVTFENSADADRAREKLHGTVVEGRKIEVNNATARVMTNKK
Sequence	RBNS enrichment (R)
CUUCGCUAAUAUUUUAAACAGUCCUGUAAAAAACCAAAAAGGACUUUUUGUAUAGAAAGCACUACCCUAAGCCAUGAAGAACUCCAUGCUUUGCUAACCAAGAUAACUGU	0.325
AACAUUGUAUGUAUAUGUGUUUGCUUUGGGAGGAGGUGGCACUGUGUUAGUUGACAGUUGUGGGCUCAUGUAGUCUUUUUUGCCAUGAGUAGGAGCCCCUAGUGGGGCUG	2.92
CAGUAGUUGGAAACAUCUCAAUUACAGUGUAACACCUUAGAGCUAAAAACAUUUGUUCAACACAAACUAGAAUCACACCUUCUCACUAGAUAUCACCAAGGGAAUGUGGU	0.404
GUCAAGUAGUCCAUCUUAGCCCAGUUUGGGCUGGUUAGAGACUCCACAGCACCCAGGAGUGGCCCUGUCUUGCCACAAAGAGCCCGACCAGCAGGUCCUGCAGCUUACCA	0.433
AUUGAUAGAGCUCUUUUAUAACUAAAGCAUUUAAUUUUUUGUACUAGAAAAACUUUUGAAUAUUUUAGUUCAUUGUUCAGAUAUGUUAACUCAAGAUUAGUUUAAUUAAA	1.63
AAAUCAUAAUGUAUUAUUUAAAUGUUUAACAUCAUUGCAUAACAGCGUUUAUUAUACAGUGGCAGAUUUCUUUAGCUGCCACAGUAAUACUCAUUCCUUGUGUGUGUCUU	0.265
CCUGGGAAGACAUGAAUGUGCAGACCAUUGCAGAGCUUUUGAUUUCAUCUAGGUUCUGAAUUACAGAAACCAACCAACCAAAAUUCUACCUUCAUUCUACAUAGACAUCA	0.495
AUACCUAUAUCUUCCAGAUGUCCUCAUCUGCUGCAGGGCUUUGGCCCUGCUCAGGAUAAUGUGCUAUGAGCCCUCAUCUGACUCUCAGUUUGUACUGGAGAACCAUACAG	0.154
AUCAUUUAAAGUUGAAAGAAAAAUAUUUAUAUAUUUUAUGAACCACAAGGACACUUUAAAACCUUAGGAAUUAUAAAAAUGUCUUUGAUAUUAGAUACUCACAAUCAAAG	0.598
GUUCAUGAUUGUUGUGUUUUAAGACUUGUAUAUAAACUGCUUUUUCCAAACUCUGUAUAACUUUUAAAUGGCUGGAACUACUCGUAUAAGGACUAGACUGUAUUUUUGAC	0.925
ACAUGAGCACAGGUGCUUCAUGACAAACAUUACUAGCAUGUUCAACUGCACCAUGUUCUGGCACUGUAUUUUGAAUGACAUUAAUUUAUUAAAUAAAUUGUAUAUAUUCA	0.709
UCUAAGGGGACGUUAUAAGUGAGCAGAAUAUCAGAAGACCAUGAAUAUGGCAAUUCAUAGUUGAGCUGUGUUGGCUUGAGGGAUGCUGCUGCUAAGUAGGGUGGACUGGG	0.572

Series 2
Substance: PhoQ, residues 284 288 289 292 302 303 SLANIV
Method: Sort-seq
Refers to: YFP reporter
Sample: E. coli
Setting: PhoQ-PhoP variant library
Together with: 10 µM Mg2+
Relative to: high Mg2+ state
Reading: higher = stronger signaling
target	fold induction
PhoP, residues 12 14 15 18 19 QYFSL (Escherichia coli, UniProt P23836)	15.7
PhoP, residues 12 14 15 18 19 NYFRM (Escherichia coli, UniProt P23836)	1.56
PhoP, residues 12 14 15 18 19 TQALL (Escherichia coli, UniProt P23836)	7.12

Series 3
Target: Ras GTPase-activating protein-binding protein 1, RRM domain (G3BP1, Homo sapiens, UniProt Q13283)
Sequence of UniProt Q13283 (whole entry, looked up): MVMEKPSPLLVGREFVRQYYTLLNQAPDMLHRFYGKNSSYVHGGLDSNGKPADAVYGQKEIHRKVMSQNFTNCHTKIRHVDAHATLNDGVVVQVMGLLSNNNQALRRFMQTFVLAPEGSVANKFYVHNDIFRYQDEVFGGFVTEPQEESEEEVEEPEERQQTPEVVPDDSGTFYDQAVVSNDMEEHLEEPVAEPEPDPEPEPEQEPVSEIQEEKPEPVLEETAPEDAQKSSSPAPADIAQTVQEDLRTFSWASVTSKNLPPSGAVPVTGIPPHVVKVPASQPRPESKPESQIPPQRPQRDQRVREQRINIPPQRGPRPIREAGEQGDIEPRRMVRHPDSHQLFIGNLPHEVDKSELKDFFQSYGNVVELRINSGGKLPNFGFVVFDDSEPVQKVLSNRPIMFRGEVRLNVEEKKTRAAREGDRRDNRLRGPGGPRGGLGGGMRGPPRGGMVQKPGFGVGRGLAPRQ
Method: RNA Bind-n-Seq
Form: RNA
Sample: in vitro
Concentration: 1 µM
Setting: whole 134-nt RNA, ends assumed
Together with: 150 mM KCl
Relative to: input library
Reading: higher = stronger binding
Constant ends, left off below: GGGAGUUCUACAGUCCGACGAUC … UGGAAUUCUCGGGUGUCAAGG
Sequence	log2 enrichment
ACCAUGCAGGUGGGCAUCUUUGGGAAGUGGGGUAAGGGGGGGAUAGGGAGGGGGGUAACACUUUGGGAACAGGUGGUCCCAGGUCGUUUC	-0.547
CCUGUGCUACACAUCGUAUGUACCGAAUCGGGAAAAAAAGGGUUUUUUUGGGAAAAAGGGAAAGUAUUAUGUUACGCCGUUCGGAUCUGC	-0.302
CAAGUCCUGUGCUACACAUCGUAUGUACCGAAUCGGGGUUUGGGGUGGGGUGGGGAAAGUAUUAUGUUACGCCGUUCGGAUCUGCACUUC	0.992
UUCCUCAAGUCCUGUGCUACACAUCGUAUGUACCGAAUCGGAGGAGGUGGAAAGUAUUAUGUUACGCCGUUCGGAUCUGCACUUCCAGCA	-0.338
AGUCCUGUGCUACACAUCGUAUGUACCGAAUCGGGGUUUUGGUUUUGGGGUUUUGGGGAAAGUAUUAUGUUACGCCGUUCGGAUCUGCAC	0.0434
UAACUUUAGAGGAGGAUCUGAUGGAUAUGGCAGUGGACGUGGAUUUGGGGAUGGCUAUAAUGGGUAUCGAGGAGGACCUGGAGGUGGCAA	-0.268
UCAAGUCCUGUGCUACACAUCGUAUGUACCGAAUCGGUUUGGGUUUGGGUUUGGAAAGUAUUAUGUUACGCCGUUCGGAUCUGCACUUCC	-0.224
AAGUCCUGUGCUACACAUCGUAUGUACCGAAUCGGGAAAAGGGGAAAAGGGAAAAGGAAAGUAUUAUGUUACGCCGUUCGGAUCUGCACU	-0.128
UGGCCCUGGUGGCAUGCGGGGAGGAAGAGGUGGCCUCAUGGAUCGUGGUGGUCCCGGUGUAAUGUUCAGAGGUGGCCGUGGUGGAGACAG	0.748
CCUCAAGUCCUGUGCUACACAUCGUAUGUACCGAAUCGGGUGGGAGGGUGGGAAAGUAUUAUGUUACGCCGUUCGGAUCUGCACUUCCAG	0.773
AGUCCUGUGCUACACAUCGUAUGUACCGAAUCGGGAAAGGGUUUGGGAAAAAAAGGGAAAGUAUUAUGUUACGCCGUUCGGAUCUGCACU	0.0758
UCAAGUCCUGUGCUACACAUCGUAUGUACCGAAUCGGAAAAAGGAGGAAAAAGGAAAGUAUUAUGUUACGCCGUUCGGAUCUGCACUUCC	-0.131

Series 4
Target: CCNB1, cyclin fold, Cln2 fusion (human)
Method: yeast growth competition, sequencing
Sample: yeast
Setting: strong parent motif
Relative to: not given
Reading: higher = stronger binding
Starting sequence: INSM1 docking peptide (human); PKAIRKLHFEDEV; partner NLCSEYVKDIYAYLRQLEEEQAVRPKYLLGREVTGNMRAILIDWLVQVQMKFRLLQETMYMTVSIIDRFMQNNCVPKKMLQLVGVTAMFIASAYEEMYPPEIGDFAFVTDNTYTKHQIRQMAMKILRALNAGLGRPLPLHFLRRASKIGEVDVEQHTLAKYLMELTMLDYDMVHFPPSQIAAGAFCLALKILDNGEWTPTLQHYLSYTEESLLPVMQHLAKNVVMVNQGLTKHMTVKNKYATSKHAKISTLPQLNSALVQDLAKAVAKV
Variant	normalised enrichment score
PKAIRKLGFEDEV [H8G]	0.679
PKAIRKLHLEDEV [F9L]	0.536
PKAIRKLQFEDEV [H8Q]	2.29
PKAIEKLHFEDEV [R5E]	0.542
PKAILKLHFEDEV [R5L]	1.44
PKAIRKLHFEVEV [D11V]	0.959
PKAIRYLHFEDEV [K6Y]	0.726
PKAIRKLHFEEEV [D11E]	2.72
PKAIRQLHFEDEV [K6Q]	2.46
PKAGRKLHFEDEV [I4G]	0.148
PKAIRKHHFEDEV [L7H]	-0.102
PKAIRKLHMEDEV [F9M]	0.485
PKAIAKLHFEDEV [R5A]	1.02
PKAIRKLHFEDVV [E12V]	1.22
PKAIRKLHFEDRV [E12R]	0.823

For quick reference, copied from above (series 4):
Variant	normalised enrichment score
PKAIRKLQFEDEV [H8Q]	2.29
PKAIEKLHFEDEV [R5E]	0.542
PKAILKLHFEDEV [R5L]	1.44
PKAIRKLHFEVEV [D11V]	0.959
PKAIRYLHFEDEV [K6Y]	0.726
PKAIRKLHFEEEV [D11E]	2.72
